Measurements of several laboratories.
Several values in a cell are separate wells, animals, samples, runs or records.
PRKCB isoform beta-I: Protein kinase C beta type, isoform beta-I (PRKCB, Homo sapiens, UniProt P05771)
PRKCB isoform beta-II: Protein kinase C beta type, isoform beta-II (PRKCB, Homo sapiens, UniProt P05771)

COCC12C(=O)NC3C4(C(OC)CC1O)C1CC5(O)C(OC)C(O)C(OC(C)=O)(C1C5OC(=O)c1ccccc1)C3(O)C(OC)C24 (stereo not shown)
remaining activity (PRKCB isoform beta-I; kinase activity, inhibitor, ProQinase kinase profiling; 25 µM; relative to: control): 104% and 111%

CN1CCN(Cc2ccc(-c3ccc(CO[C@H]4CCC[C@@H]4NC(=O)c4cc(-c5cnn(C)c5)cnc4N)cc3)cc2)CC1
inhibition (PRKCB isoform beta-II; SelectScreen kinase profiling; 0.1 µM): 10%

COc1c(OCCCN2CCOCC2)ccc2c1N=C(NC(=O)c1cnc(N)nc1)N1CCN=C21
remaining activity (PRKCB isoform beta-I; kinase activity, inhibitor; 1 µM; relative to: untreated control): 97%

NC(=O)[C@@H](O)C[C@H]1CCc2sc3ncnc(O[C@H]4CC[C@H](N5CCOCC5)CC4)c3c21
inhibition (PRKCB isoform beta-II; radioisotope kinase; 10 µM): 9%

COc1ccc(NC(=O)Nc2ccc3c(c2)C(=O)N(C(C)CO)CC(C)C(CN(C)Cc2ccc4c(c2)OCO4)O3)cc1 (stereo not shown)
remaining activity (PRKCB isoform beta-I; kinase activity, KinaseProfiler; 0.03 µM, species human; relative to: control): 103%

CN1CC[C@@H](COc2cnc(C#N)cc2-c2ccn3nc(NC(=O)C4CC4)cc3c2)C1
inhibition (Protein kinase C beta type, beta-II isoform (PRKCB, Homo sapiens, UniProt P05771); kinase activity; 1 µM): 2%

C=CC(=O)N1Cc2nc(-c3cc(-c4cc(Cl)cnc4Cl)c(F)cc3F)n(-c3ccncn3)c2C1
inhibition (PRKCB isoform beta-II; kinome panel; 1 µM): 12.2%

Cc1cccc(O[C@H]2CCC[C@@H](C(C)CNCc3ccncc3)C2)c1 (relative stereo)
inhibition (PRKCB isoform beta-I; kinome profiling; 1 µM): 3%

NC(=O)C[C@H]1CCc2sc3ncnc(O[C@H]4CC[C@H](N5CCOCC5)CC4)c3c21
inhibition (PRKCB isoform beta-I; radioisotope kinase; 10 µM): 6%

O=C=[N][Ru-4]123([n]4c5ccc(O)cc5c5c6c(c7cc(F)c[n+]1c7c54)C(=O)NC6=O)[S+]1CC[S+]2CC[S+]3CC1 (stereo not shown)
remaining activity (PRKCB isoform beta-II; enzyme activity; 100 nM, human enzyme, added: 10 µM ATP; relative to: untreated): 82%

O=c1c(-c2ccc(Cl)c(CN3CCOCC3)c2)coc2cc(O)ccc12
remaining activity (PRKCB isoform beta-II; enzyme activity, inhibitor, KinaseProfiler; 1 µM, added: ATP at Km): 99%

CCn1cc(C(=O)O)c(=O)c2c(N)c(F)c(NC3CCCCC3)cc21
inhibition (PRKCB isoform beta-I; kinase activity; 0.1 µM, added: ATP at Km): 5.6%

C=CC(=O)Nc1cccc(-c2cnc3[nH]cc(C(=O)NC(C)(C)C)c3n2)c1
inhibition (PRKCB isoform beta-I; enzyme activity, inhibitor; 0.1 µM): -1%

O=C(Cc1ccc(OCc2ccccc2)cc1)NC1(C(=O)O)CCN(C(=O)c2ccc(-c3cccc(Cl)c3)cc2)CC1
remaining activity (PRKCB isoform beta-I; kinase activity, inhibitor; 10 µM, added: ATP at Km): 107%

Nc1ncc(-c2cc(-c3cnn(CC(F)(F)F)c3)ncc2F)nc1C(=O)NC1CNCC(F)C1 (stereo not shown)
remaining activity (PRKCB isoform beta-II; enzyme activity; 1 µM; relative to: DMSO control): 79.4%

CNC(=O)C[C@H](Cc1ccc(C#N)cc1)NC(=O)c1cc(-c2ccc(CN[C@H](C)c3ccc(C)cc3)o2)ccc1Cl
remaining activity (PRKCB isoform beta-I; enzyme activity, KinaseProfiler panel; 1 µM): 98%

Excerpt of the above:
CCn1cc(C(=O)O)c(=O)c2c(N)c(F)c(NC3CCCCC3)cc21
inhibition (PRKCB isoform beta-I; kinase activity; 0.1 µM, added: ATP at Km): 5.6%

C=CC(=O)Nc1cccc(-c2cnc3[nH]cc(C(=O)NC(C)(C)C)c3n2)c1
inhibition (PRKCB isoform beta-I; enzyme activity, inhibitor; 0.1 µM): -1%

O=C(Cc1ccc(OCc2ccccc2)cc1)NC1(C(=O)O)CCN(C(=O)c2ccc(-c3cccc(Cl)c3)cc2)CC1
remaining activity (PRKCB isoform beta-I; kinase activity, inhibitor; 10 µM, added: ATP at Km): 107%
